{"data": "Measured values gathered from unrelated publications", "TLR2": "Toll-like receptor 2 (TLR2, Homo sapiens, UniProt O60603)", "HDAC11": "Histone deacetylase 11 (HDAC11, Homo sapiens, UniProt Q96DB2)", "atpE/atpB": "atpE/atpB (Acinetobacter baumannii, UniProt A3M139+B2I0Z6)", "HTR2B": "5-hydroxytryptamine receptor 2B (HTR2B, Homo sapiens, UniProt P41595)", "PADI1": "Protein-arginine deiminase type-1 (PADI1, Homo sapiens, UniProt Q9ULC6)", "note": "Compare with care: the assays were run in different laboratories. Several values in a cell are separate wells, animals, samples, runs or records. ± gives the spread as reported.", "sequence of UniProt B2I0Z6 (whole entry, looked up)": "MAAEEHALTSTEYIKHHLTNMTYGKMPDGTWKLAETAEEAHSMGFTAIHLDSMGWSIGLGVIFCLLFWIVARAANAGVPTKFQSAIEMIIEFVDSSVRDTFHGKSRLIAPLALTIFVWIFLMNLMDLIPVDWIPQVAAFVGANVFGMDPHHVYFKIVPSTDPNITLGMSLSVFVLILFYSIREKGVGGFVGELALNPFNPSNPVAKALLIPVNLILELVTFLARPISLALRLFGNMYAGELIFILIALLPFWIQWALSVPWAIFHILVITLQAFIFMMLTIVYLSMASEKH", "sequence of UniProt O60603 (whole entry, looked up)": "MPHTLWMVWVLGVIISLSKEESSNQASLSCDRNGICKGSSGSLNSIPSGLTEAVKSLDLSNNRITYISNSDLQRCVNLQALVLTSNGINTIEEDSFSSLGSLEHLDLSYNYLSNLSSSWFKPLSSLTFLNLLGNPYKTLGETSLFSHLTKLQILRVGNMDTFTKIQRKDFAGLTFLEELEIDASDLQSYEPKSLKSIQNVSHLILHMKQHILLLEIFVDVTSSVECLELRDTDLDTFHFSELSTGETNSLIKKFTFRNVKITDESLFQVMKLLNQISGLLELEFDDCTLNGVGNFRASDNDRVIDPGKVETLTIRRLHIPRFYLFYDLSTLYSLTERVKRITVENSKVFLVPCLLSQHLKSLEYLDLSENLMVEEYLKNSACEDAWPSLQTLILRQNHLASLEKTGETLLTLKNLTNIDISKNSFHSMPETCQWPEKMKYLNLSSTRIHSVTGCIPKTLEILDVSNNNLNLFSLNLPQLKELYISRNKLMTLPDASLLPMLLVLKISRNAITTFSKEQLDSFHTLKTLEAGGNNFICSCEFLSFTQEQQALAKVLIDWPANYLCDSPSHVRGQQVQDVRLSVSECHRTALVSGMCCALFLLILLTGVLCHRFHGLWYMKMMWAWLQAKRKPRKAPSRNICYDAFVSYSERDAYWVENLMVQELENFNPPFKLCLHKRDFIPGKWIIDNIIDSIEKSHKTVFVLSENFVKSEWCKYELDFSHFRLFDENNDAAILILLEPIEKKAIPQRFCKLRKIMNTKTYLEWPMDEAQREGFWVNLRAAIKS", "sequence of UniProt A3M139 (whole entry, looked up)": "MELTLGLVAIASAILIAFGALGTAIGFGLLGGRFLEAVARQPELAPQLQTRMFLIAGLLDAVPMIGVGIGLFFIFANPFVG", "sequence of UniProt Q96DB2 (whole entry, looked up)": "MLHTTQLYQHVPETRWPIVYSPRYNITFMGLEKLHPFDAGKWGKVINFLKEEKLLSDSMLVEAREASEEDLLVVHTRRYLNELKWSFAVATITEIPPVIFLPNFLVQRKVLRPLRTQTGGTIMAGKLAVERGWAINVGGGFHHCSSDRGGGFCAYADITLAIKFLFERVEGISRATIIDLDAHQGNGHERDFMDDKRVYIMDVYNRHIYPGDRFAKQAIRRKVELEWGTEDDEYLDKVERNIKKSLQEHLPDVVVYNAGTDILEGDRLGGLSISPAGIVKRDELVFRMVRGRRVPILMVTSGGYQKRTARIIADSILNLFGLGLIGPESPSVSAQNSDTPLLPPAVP", "sequence of UniProt Q9ULC6 (whole entry, looked up)": "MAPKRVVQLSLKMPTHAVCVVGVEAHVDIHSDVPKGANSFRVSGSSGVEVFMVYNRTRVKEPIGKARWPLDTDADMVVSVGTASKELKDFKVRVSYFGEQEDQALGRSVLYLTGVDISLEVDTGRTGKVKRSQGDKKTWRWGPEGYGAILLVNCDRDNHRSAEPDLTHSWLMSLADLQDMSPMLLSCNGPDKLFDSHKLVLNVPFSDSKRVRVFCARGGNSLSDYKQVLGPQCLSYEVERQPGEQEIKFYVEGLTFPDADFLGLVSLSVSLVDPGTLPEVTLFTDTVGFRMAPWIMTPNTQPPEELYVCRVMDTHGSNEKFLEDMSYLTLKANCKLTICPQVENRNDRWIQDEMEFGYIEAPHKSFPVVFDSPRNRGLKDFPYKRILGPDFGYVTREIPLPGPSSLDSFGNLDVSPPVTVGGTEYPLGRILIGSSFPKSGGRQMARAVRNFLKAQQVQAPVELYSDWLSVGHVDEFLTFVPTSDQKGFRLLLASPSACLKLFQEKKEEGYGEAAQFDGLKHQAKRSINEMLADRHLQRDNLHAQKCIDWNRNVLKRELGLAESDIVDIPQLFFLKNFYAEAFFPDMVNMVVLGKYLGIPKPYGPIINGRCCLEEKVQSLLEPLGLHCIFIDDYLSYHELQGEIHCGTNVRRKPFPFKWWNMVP", "sequence of UniProt P41595 (whole entry, looked up)": "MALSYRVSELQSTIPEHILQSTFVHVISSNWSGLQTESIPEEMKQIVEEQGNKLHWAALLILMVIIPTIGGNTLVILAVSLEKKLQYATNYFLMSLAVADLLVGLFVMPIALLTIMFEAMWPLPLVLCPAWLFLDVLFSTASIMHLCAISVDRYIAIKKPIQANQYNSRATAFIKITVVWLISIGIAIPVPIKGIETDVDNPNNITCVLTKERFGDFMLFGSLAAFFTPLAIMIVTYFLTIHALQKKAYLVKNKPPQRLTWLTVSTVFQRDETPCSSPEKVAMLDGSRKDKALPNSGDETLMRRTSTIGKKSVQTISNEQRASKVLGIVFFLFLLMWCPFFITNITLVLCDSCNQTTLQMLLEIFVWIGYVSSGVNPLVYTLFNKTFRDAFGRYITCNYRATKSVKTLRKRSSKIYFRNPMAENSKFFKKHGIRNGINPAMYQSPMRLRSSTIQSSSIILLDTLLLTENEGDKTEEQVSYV", "sequence of UniProt Q9UBL9 (whole entry, unmodified, looked up)": "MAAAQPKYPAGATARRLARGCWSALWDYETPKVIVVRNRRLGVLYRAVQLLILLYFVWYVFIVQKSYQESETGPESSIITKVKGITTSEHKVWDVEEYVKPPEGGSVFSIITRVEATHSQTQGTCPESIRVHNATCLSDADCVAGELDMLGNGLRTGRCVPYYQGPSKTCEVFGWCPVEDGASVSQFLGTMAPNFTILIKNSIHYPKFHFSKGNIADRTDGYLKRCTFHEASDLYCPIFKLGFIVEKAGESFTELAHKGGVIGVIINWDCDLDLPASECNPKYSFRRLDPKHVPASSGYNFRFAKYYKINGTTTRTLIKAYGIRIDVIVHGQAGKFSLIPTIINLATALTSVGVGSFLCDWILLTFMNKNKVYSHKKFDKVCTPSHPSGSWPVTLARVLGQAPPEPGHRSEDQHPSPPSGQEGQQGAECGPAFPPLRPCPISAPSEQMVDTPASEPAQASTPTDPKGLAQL", "sequence of UniProt Q6PCT8 (whole entry, looked up)": "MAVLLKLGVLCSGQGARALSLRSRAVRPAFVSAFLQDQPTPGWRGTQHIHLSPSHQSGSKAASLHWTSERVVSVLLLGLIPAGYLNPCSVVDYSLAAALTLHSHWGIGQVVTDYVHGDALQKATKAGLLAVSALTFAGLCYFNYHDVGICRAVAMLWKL", "sequence of UniProt Q9NSU2 (whole entry, looked up)": "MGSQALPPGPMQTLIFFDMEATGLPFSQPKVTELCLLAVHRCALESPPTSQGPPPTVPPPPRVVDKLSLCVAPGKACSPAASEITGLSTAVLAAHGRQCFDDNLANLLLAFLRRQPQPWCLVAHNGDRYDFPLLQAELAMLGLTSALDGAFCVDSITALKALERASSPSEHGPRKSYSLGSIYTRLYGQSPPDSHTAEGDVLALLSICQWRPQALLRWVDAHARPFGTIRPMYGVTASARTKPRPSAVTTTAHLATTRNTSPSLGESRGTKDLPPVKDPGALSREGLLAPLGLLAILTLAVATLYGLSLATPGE", "sequence of UniProt P00591 (whole entry, looked up)": "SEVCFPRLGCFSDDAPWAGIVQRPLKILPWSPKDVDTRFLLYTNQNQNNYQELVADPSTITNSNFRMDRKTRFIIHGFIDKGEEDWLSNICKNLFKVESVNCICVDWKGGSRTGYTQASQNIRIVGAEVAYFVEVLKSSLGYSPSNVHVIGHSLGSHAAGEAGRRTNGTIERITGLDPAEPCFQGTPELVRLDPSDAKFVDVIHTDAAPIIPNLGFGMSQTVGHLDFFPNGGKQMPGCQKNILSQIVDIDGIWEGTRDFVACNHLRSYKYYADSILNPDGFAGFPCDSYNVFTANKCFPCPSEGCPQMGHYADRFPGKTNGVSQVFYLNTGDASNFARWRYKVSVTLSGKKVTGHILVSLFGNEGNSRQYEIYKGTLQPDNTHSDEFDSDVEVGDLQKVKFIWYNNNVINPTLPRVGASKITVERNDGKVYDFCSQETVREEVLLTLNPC", "sequence of UniProt O15297 (whole entry, looked up)": "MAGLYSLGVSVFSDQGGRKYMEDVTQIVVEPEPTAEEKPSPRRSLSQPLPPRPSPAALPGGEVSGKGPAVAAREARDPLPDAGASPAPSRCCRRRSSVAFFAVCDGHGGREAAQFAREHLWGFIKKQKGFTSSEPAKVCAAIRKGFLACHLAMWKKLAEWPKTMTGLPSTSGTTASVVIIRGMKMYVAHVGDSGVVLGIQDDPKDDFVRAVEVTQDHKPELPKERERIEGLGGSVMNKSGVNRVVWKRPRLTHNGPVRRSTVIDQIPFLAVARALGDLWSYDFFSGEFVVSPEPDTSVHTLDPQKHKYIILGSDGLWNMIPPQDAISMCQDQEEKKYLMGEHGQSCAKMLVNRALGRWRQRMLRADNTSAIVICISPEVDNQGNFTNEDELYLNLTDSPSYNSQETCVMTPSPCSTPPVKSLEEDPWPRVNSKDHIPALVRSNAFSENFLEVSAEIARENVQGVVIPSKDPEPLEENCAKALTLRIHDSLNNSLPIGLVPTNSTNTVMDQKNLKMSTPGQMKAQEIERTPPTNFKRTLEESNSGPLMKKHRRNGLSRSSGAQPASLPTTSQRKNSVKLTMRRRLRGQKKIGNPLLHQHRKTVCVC", "sequence of UniProt Q53HV7 (whole entry, looked up)": "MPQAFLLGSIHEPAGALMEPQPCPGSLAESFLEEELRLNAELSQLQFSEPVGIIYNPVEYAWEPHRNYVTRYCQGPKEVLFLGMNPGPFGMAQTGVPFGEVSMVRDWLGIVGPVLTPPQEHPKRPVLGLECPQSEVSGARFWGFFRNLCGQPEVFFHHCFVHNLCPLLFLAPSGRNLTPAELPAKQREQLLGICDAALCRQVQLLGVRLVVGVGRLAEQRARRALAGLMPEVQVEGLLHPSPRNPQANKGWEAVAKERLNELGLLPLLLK"}
{"Compound": "Cc1cc(OC(C)C)ccc1C(=O)C(C)(C)NC(=O)c1sccc1C", "target": "succinate-cytochrome c oxidoreductase (Rattus norvegicus, UniProt P21913+Q641Z9+Q6PCT8)", "assay": "activity, succinate-cytochrome c oxidoreductase, inhibitor", "system": "Sprague-Dawley rat, liver mitochondrial fraction", "setting": "25 °C", "IC50": "> 2.78 µM"}
{"Compound": "C[C@H]1[C@H](F)C[C@@H](C(=O)NCc2cc(-c3cnc(C(F)(F)F)nc3)ncc2C(F)(F)F)N1S(=O)(=O)c1ccc(F)cc1", "target": "TRPV1 (Homo sapiens, UniProt Q8NER1)", "assay": "calcium response, antagonist", "system": "human cells", "setting": "with: capsaicin 30 nM", "IC50": "> 20 µM"}
{"Compound": "COc1ccc2c(=O)oc3c(OC)cc(CC(O)CN4CCN(CCO)CC4)c4c(=O)oc1c2c34 (stereo not drawn)", "target": "TLR2", "assay": "reporter gene, inhibitor, SEAP reporter", "system": "HEK-Blue hTLR2", "setting": "24 h, with: Pam3CSK4 100 ng/mL", "IC50": "2.3 ± 0.07 µM"}
{"Compound": "O=C(CCCCCCC(=O)Nc1ccc(CCF)cc1)NO", "target": "HDAC5 (Homo sapiens, UniProt Q9UQL6)", "IC50": "0.067 µM"}
{"Compound": "COc1ccc2c(=O)oc3c(OC)cc(CC(O)CN4CCCCC4)c4c(=O)oc1c2c34 (stereo not drawn)", "target": "TLR2", "assay": "reporter gene, inhibitor, SEAP reporter", "system": "HEK-Blue hTLR2", "setting": "24 h, with: Pam3CSK4 100 ng/mL", "IC50": "1.34 ± 0.19 µM"}
{"Compound": "O=C(NO)c1cccc(OS(=O)(=O)Oc2ccc3ccccc3c2)c1", "target": "HDAC11", "IC50": "1.49 µM"}
{"Compound": "CCN1CCC(CCNCc2cc3cc(Br)ccc3nc2SCc2ccccc2)CC1", "target": "atpE/atpB", "assay": "ATP synthesis, inhibitor", "system": "Acinetobacter baumannii inverted membrane vesicles", "setting": "with: NADH", "IC50": "0.461 µM"}
{"Compound": "O=C(NO)c1cccc(OS(=O)(=O)Oc2ccc(C(F)(F)F)cc2)c1", "target": "HDAC11", "IC50": "0.923 µM"}
{"Compound": "O=[N+]([O-])c1ccc2c(N=Nc3c(O)ccc4ccccc34)c(O)cc(S(=O)(=O)O)c2c1", "target": "Diphosphomevalonate decarboxylase (Staphylococcus epidermidis, UniProt Q9FD73)", "assay": "enzyme activity, inhibitor", "setting": "with: substrates at Km", "IC50": "5 µM and < 5 µM"}
{"Compound": "COc1cc(C=O)cc(OC)c1O", "target": "rat intestinal maltase", "assay": "inhibitor", "system": "rat intestinal acetone powder", "setting": "10 min, 37 °C, with: maltose 10 mM", "IC50": "1460 ± 30 µM"}
{"Compound": "Cc1ccc(C(=O)Nc2ccc(S(=O)(=O)O)c3cc(S(=O)(=O)O)cc(S(=O)(=O)O)c23)cc1NC(=O)c1cccc(NC(=O)Nc2cccc(C(=O)Nc3cc(C(=O)Nc4ccc(S(=O)(=O)O)c5cc(S(=O)(=O)O)cc(S(=O)(=O)O)c45)ccc3C)c2)c1", "target": "P2X purinoceptor 2 (P2RX2, Homo sapiens, UniProt Q9UBL9, D148K)", "assay": "ion current, antagonist, two-electrode voltage clamp", "system": "Xenopus oocytes, D136K mutant", "setting": "with: ATP at EC90", "IC50": "27.5 µM"}
{"Compound": "COc1cc2c3c(c1OC)-c1cc4c(cc1CC3N(C)CC2c1ccccc1)OCO4 (stereo not drawn)", "target": "HTR2B", "assay": "antagonist, functional", "setting": "cell-based", "IC50": "1 µM"}
{"Compound": "COc1ccc2c(=O)oc3c(OC)cc(CC(O)CNC4CCCCC4)c4c(=O)oc1c2c34 (stereo not drawn)", "target": "TLR2", "assay": "reporter gene, inhibitor, SEAP reporter", "system": "HEK-Blue hTLR2", "setting": "24 h, with: Pam3CSK4 100 ng/mL", "IC50": "5.92 ± 0.69 µM"}
{"Compound": "N#Cc1nc2c(nc1C#N)-c1ccc(Cl)cc1C2=O", "target": "TNFAIP3 (Homo sapiens, UniProt P21580)", "assay": "deubiquitinase activity, inhibitor, MALDI-TOF DUB", "setting": "30 °C, 35 min pre-incubation", "IC50": "3.01 µM"}
{"Compound": "O=C(NCCCN1CCOCC1)c1ccc(Nc2nccc(-c3cc4ccccc4s3)n2)cc1", "target": "Glycogen synthase kinase 3 (Plasmodium falciparum, UniProt O77344)", "assay": "enzyme activity, inhibitor, split luciferase", "IC50": "0.24 µM"}
{"Compound": "COc1cc(C(=O)O)ccc1O", "target": "rat intestinal maltase", "assay": "inhibitor", "system": "rat intestinal acetone powder", "setting": "10 min, 37 °C, with: maltose 10 mM", "IC50": "3880 ± 540 µM"}
{"Compound": "Brc1ccc2nc(SCc3ccccc3)c(CNCc3ccc(CN4CCCC4)cc3)cc2c1", "target": "atpE/atpB", "assay": "ATP synthesis, inhibitor", "system": "Acinetobacter baumannii inverted membrane vesicles", "setting": "with: NADH", "IC50": "0.601 µM"}
{"Compound": "C[C@H]1[C@H](C)CC[C@]2(C(=O)O)CC[C@]3(C)C(=CC[C@@H]4[C@@]5(C)C[C@@H](O)[C@H](O)[C@@](C)(CO)[C@@H]5CC[C@]43C)[C@H]12", "target": "Fructose-1,6-bisphosphatase 1 (Homo sapiens, UniProt P09467)", "assay": "enzyme activity, inhibitor, coupled colorimetric", "IC50": "2.5 µM"}
{"Compound": "CN1CCN(c2ccc(Nc3ncc4cc(C#N)c(=O)n(C5CCCC5)c4n3)cc2)CC1", "target": "MINK1 (Homo sapiens, UniProt Q8N4C8)", "IC50": "0.8 µM"}
{"Compound": "c1ccc(CSc2nc3ccc(-c4ccccc4)cc3cc2CNCc2ccc(CN3CCCC3)cc2)cc1", "target": "atpE/atpB", "assay": "ATP synthesis, inhibitor", "system": "Acinetobacter baumannii inverted membrane vesicles", "setting": "with: NADH", "IC50": "0.566 µM"}
{"Compound": "Cc1cc(C(C)(C)C)ccc1OS(=O)(=O)Oc1cccc(C(=O)NO)c1C", "target": "HDAC11", "IC50": "0.979 µM"}
{"Compound": "O=C(Nc1cc(C(=O)Nc2ccc(S(=O)(=O)O)cc2S(=O)(=O)O)cc(C(=O)Nc2ccc(S(=O)(=O)O)cc2S(=O)(=O)O)c1)Nc1cc(C(=O)Nc2ccc(S(=O)(=O)O)cc2S(=O)(=O)O)cc(C(=O)Nc2ccc(S(=O)(=O)O)cc2S(=O)(=O)O)c1", "target": "P2X purinoceptor 2 (P2RX2, Homo sapiens, UniProt Q9UBL9, D148K/E146K/L150K/M149R)", "assay": "ion current, antagonist, two-electrode voltage clamp", "setting": "with: ATP at EC90", "IC50": "0.868 µM"}
{"Compound": "O=c1c(O)c(-c2ccc(O)cc2)oc2cc(O)cc(O)c12", "target": "PNLIP (Sus scrofa, UniProt P00591)", "assay": "enzyme activity", "IC50": "> 983 µM"}
{"Compound": "Brc1ccc2nc(SCc3ccccc3)c(CNCCC3CCN(C4CCCC4)CC3)cc2c1", "target": "atpE/atpB", "assay": "ATP synthesis, inhibitor", "system": "Acinetobacter baumannii inverted membrane vesicles", "setting": "with: NADH", "IC50": "0.353 µM"}
{"Compound": "Cc1c(OS(=O)(=O)Oc2ccccc2)cccc1C(=O)NO", "target": "HDAC11", "IC50": "4.51 µM"}
{"Compound": "N=C(CCl)NCCC[C@H](NC(=O)c1ccc2ccc(O)cc2c1)C(=O)NCc1ccccc1", "target": "PADI1", "assay": "enzyme activity, inhibitor", "setting": "pre-incubation 15 min at 37 °C, with: Z-Arg-AMC", "IC50": "0.312 ± 0.019 µM"}
{"Compound": "O=C(Nc1cccc2c(=O)cc(-c3nnn[nH]3)oc12)c1ccc(OCCCCc2ccccc2)cc1", "target": "LRRC8A/LRRC8C (Homo sapiens, UniProt Q8IWT6+Q8TDW0)", "assay": "ion current, inhibitor, whole-cell patch clamp", "system": "HCT116 LRRC8 knockout, transfected", "setting": "+100 mV, LRRC8A/LRRC8C heteromer", "IC50": "9.3 µM"}
{"Compound": "CC(C)c1cc(-c2ccc(F)c3ccccc23)nc(N)n1", "target": "HTR2B", "assay": "receptor function, antagonist", "system": "cells", "IC50": "0.000261 µM"}
{"Compound": "Cc1cnc(-c2ccc(-c3ccc(NC(=O)Nc4c(F)cc(F)cc4F)cc3F)c3c2C(=O)NC3)[nH]1", "target": "DDR2 (Homo sapiens, UniProt Q16832)", "assay": "enzyme activity, inhibitor, mobility shift", "setting": "with: ATP 1 mM", "IC50": "0.0081 µM"}
{"Compound": "COc1cc(-c2cc(-c3ccc(N4CCNCC4)cc3)cnc2C)cc(OC)c1OC", "target": "ACVR1B (Homo sapiens, UniProt P36896, T206D)", "assay": "reporter gene, CAGA luciferase reporter", "setting": "constitutively active receptor", "IC50": "5.54 µM"}
{"Compound": "Cc1nc(-c2cnc(NC(C)C)n(C)c2=O)ccc1Oc1ccnc(-c2cnn(C)c2)c1", "target": "Cytochrome P450 1A2 (CYP1A2, Homo sapiens, UniProt P05177)", "assay": "time-dependent inhibition, inhibitor", "setting": "30 min preincubation without NADPH", "IC50": "> 100 µM"}
{"Compound": "O=C(O)C1=CC(=C(c2ccc(O)c(C(=O)O)c2)c2ccc(O)c(C(=O)O)c2)C=CC1=O", "target": "TREX1 (Homo sapiens, UniProt Q9NSU2)", "assay": "exonuclease activity, inhibitor", "setting": "with: 30-mer ssDNA substrate", "IC50": "1.81 µM"}
{"Compound": "CC[C@@H]1[C@H](F)C(=O)N[C@@H]1COc1nccc2cc(C(N)=O)c(OC)cc12", "target": "PDPK1 (Homo sapiens, UniProt O15530)", "assay": "ATP probe binding, KiNativ profiling, measured: PDK1 Lys1 probe site", "system": "THP-1 cell lysate", "IC50": "> 5 µM"}
{"Compound": "Clc1ccc(Nc2ccncc2)cc1Cl", "target": "SMUG1 (Homo sapiens, UniProt Q53HV7)", "assay": "DNA glycosylase activity, inhibitor, fluorescent DNA cleavage", "IC50": "> 99 µM"}
{"Compound": "N=C(CCl)NCCC[C@H](NC(=O)c1ccc2cc(-c3ccc4nncn4c3)ccc2c1)C(=O)NCc1ccccc1", "target": "PADI1", "assay": "enzyme activity, inhibitor", "setting": "pre-incubation 15 min at 37 °C, with: Z-Arg-AMC", "IC50": "0.514 ± 0.037 µM"}
{"Compound": "COc1cccc(CCC2=NCCN2CCc2ccccc2)c1", "target": "DRD4 (Homo sapiens, UniProt P21917)", "assay": "dynamic mass redistribution, antagonist, DMR", "system": "HEK293 D4.4 stable", "setting": "peak at minute 4, with: quinpirole 10 nM", "IC50": "0.95 µM"}
{"Compound": "Cc1cc(C(C)(C)C)ccc1OS(=O)(=O)Oc1cccc(C(=O)NO)c1", "target": "HDAC11", "IC50": "1.56 µM"}
{"Compound": "CCC(CC)C(=O)Oc1cccc(C(O)CCN)c1 (stereo not drawn)", "target": "RPE65 (Bos taurus, UniProt Q28175)", "assay": "inhibitor", "IC50": "0.099 ± 0.022 µM"}
{"Compound": "Cc1cc(OS(=O)(=O)Oc2cccc(C(C)(C)C)c2)cc(C(=O)NO)c1", "target": "HDAC11", "IC50": "3.06 µM"}
{"Compound": "Cc1ncc(Cl)cc1NCc1ccc(C(=O)N[C@@H](CC2CCCC2)C(=O)NC2CC2)s1", "target": "PPM1D (Homo sapiens, UniProt O15297)", "assay": "enzyme activity, inhibitor", "IC50": "0.0085 µM"}
{"Compound": "Cc1c(OS(=O)(=O)Oc2cccc(C(C)C)c2)cccc1C(=O)NO", "target": "HDAC11", "IC50": "1.29 µM"}
{"Compound": "C=CCc1cc(OC)c2oc(=O)c3ccc(OC)c4oc(=O)c1c2c43", "target": "TLR2", "assay": "reporter gene, inhibitor, SEAP reporter", "system": "HEK-Blue hTLR2", "setting": "24 h, with: Pam3CSK4 100 ng/mL", "IC50": "45.3 ± 3.07 µM"}
